{"data": "Published values gathered from unrelated publications", "note": "Protocols differ between the studies behind these lines. “And” joins repeats or separate records; there may be more than shown. ± gives the spread as reported."}
{"Substance": "GSGAGKESYV", "tested on": "human MAGI1-2/6 PDZ construct (MBP fusion)", "assay": "surface plasmon resonance", "system": "peptide", "setting": "concentration not given", "scale": "higher = stronger binding", "endpoint": "normalised SPR binding response", "result": "26.6 normalised RU"}
{"Substance": "ACDDQNPWRAYLDLLFPTDTLLLDLLW", "assay": "ex vivo fluorescence imaging", "system": "peptide, BALB/c mice, 4T1 tumour-bearing, liver", "setting": "intravenous, 5 nmol, 24 h post-injection", "scale": "higher = more uptake", "endpoint": "mean fluorescence intensity", "result": "303 ± 64.4 a.u."}
{"Substance": "ALLQWTDQV", "tested on": "Jurkat T cells expressing 1G4 TCR", "assay": "NFAT-eGFP reporter, fluorescence microscopy", "system": "peptide", "setting": "concentration not given, HLA-A*02:01 NY-ESO system", "endpoint": "reporter activation", "result": "10.8%"}
{"Substance": "human immunoglobulin gamma-1 constant", "assay": "co-immunoprecipitation", "system": "human RBC membrane", "setting": "DMTMM crosslinker, unit not given, added: Band 3 peptide 1-56 bait", "scale": "baseline: negative control", "endpoint": "co-IP enrichment", "result": 0}
{"Substance": "CTCATACAGT", "tested on": "Salmonella enterica Typhimurium", "assay": "RNA-seq, refers to: udg mRNA", "system": "peptide, SL1344", "setting": "5 µM, 15 min", "scale": "baseline: water control", "endpoint": "log2 fold change", "result": 1.85}
{"Substance": "GSGAGSETVV", "tested on": "human SCRIB PDZ3-4 tandem (MBP fusion)", "assay": "automated holdup", "system": "peptide, purified PDZ protein", "setting": "concentration not given, unit not given", "scale": "baseline: biotin control resin, higher = stronger binding", "endpoint": "binding intensity", "result": 0.281}
{"Substance": "CCAACCAACCAA (dsDNA)", "tested on": "Fibroin-modulator-binding protein-1 99-193 (Bombyx mori, UniProt Q5FBS0)", "assay": "ITC", "system": "double-stranded DNA, one strand shown", "endpoint": "Kd", "result": "3.82 ± 0.16 µM"}
{"Substance": "GLFQWLAGV", "tested on": "Jurkat T cells expressing 1G4 TCR", "assay": "NFAT-eGFP reporter, fluorescence microscopy", "system": "peptide", "setting": "concentration not given, HLA-A*02:01 NY-ESO system", "endpoint": "reporter activation", "result": "0.0113%"}
{"Substance": "GSGAGSETKM", "tested on": "human MAGI1-3/6 PDZ construct (MBP fusion)", "assay": "surface plasmon resonance", "system": "peptide", "setting": "concentration not given", "scale": "higher = stronger binding", "endpoint": "normalised SPR binding response", "result": "0 normalised RU"}
{"Substance": "colistin", "tested on": "Enterobacter cloacae", "assay": "broth microdilution", "system": "clinical isolate RKI-No_460/16", "endpoint": "MIC", "result": "≤ 0.5 µg/mL"}
{"Substance": "epoetin alfa", "tested on": "UT7/EPO", "assay": "microarray, refers to: EGR1 mRNA (probe set 227404_s_at)", "setting": "5 U/mL, 90 min", "scale": "baseline: vehicle", "endpoint": "mRNA level", "result": "9.7 fold"}
{"Substance": "GLLQWVSQV", "tested on": "Jurkat T cells expressing 1G4 TCR", "assay": "NFAT-eGFP reporter, fluorescence microscopy", "system": "peptide", "setting": "concentration not given, HLA-A*02:01 NY-ESO system", "endpoint": "reporter activation", "result": "22.2%"}
{"Substance": "GSGAGHETIV", "tested on": "human SCRIB PDZ3-4 tandem (MBP fusion)", "assay": "automated holdup", "system": "peptide, purified PDZ protein", "setting": "concentration not given, unit not given", "scale": "baseline: biotin control resin, higher = stronger binding", "endpoint": "binding intensity", "result": 0.517}
{"Substance": "Peginesatide", "tested on": "UT7/EPO", "assay": "tyrosine phosphorylation, LC-MS/MS phosphoproteomics, GluC, refers to: STAT3 tyrosine 705", "setting": "10 nM, 15 min, added: 10 U/mL EPO", "scale": "baseline: vehicle", "endpoint": "phosphorylation level", "result": "3.7 fold"}
{"Substance": "cotadutide", "system": "C57BL/6J mouse, AMLN diet NASH model", "setting": "dose not given, terminal", "endpoint": "plasma cholesterol", "result": "174 ± 8 mg/dL"}
{"Substance": "human retinal dehydrogenase 1", "assay": "co-immunoprecipitation", "system": "human plasma", "setting": "unit not given, added: Band 3 peptide 1-56 bait", "scale": "baseline: negative control", "endpoint": "co-IP enrichment", "result": 0}
{"Substance": "MTVCNASQRQAHAQATAVSL", "tested on": "H1437 lung adenocarcinoma", "assay": "phage binding output/input", "system": "peptide", "scale": "baseline: control phage", "endpoint": "selectivity ratio", "result": "3.4 ± 1.2"}
{"Substance": "GLGQWISQA", "tested on": "Jurkat T cells expressing 1G4 TCR", "assay": "NFAT-eGFP reporter, flow cytometry", "system": "peptide", "setting": "concentration not given, HLA-A*02:01 NY-ESO system", "endpoint": "reporter activation", "result": "0.5%"}
{"Substance": "GSGAGSETSV", "tested on": "human MAGI1-3/6 PDZ construct (MBP fusion)", "assay": "automated holdup", "system": "peptide, crude extract", "setting": "concentration not given, uncorrected, unit not given", "scale": "baseline: biotin control resin, higher = stronger binding", "endpoint": "binding intensity", "result": 0.129}
{"Substance": "ALLQWITQV", "tested on": "Jurkat T cells expressing 1G4 TCR", "assay": "NFAT-eGFP reporter, fluorescence microscopy", "system": "peptide", "setting": "concentration not given, HLA-A*02:01 NY-ESO system", "endpoint": "reporter activation", "result": "21.6%"}
{"Substance": "maraviroc", "tested on": "HBMEC", "assay": "gene expression, qPCR", "setting": "2.5 µM, 24 h", "scale": "baseline: untreated cells, increase", "endpoint": "mRNA level", "result": "13.7 fold"}
{"Substance": "LTSTVQLIM", "tested on": "HLA class I histocompatibility antigen, A alpha chain, allele A*01:01 (Homo sapiens, UniProt P04439)", "assay": "complex stability, off-rate", "system": "peptide", "setting": "37 °C", "endpoint": "half-life of peptide-HLA complex", "result": "42 min"}
{"Substance": "GEMVGQARILAQATSDLVNAIKDA", "tested on": "vinculin head domain Vd1", "assay": "complex rupture, AFM single-molecule force spectroscopy", "system": "peptide", "setting": "single traces, C-terminal pulling, 800 nm/s", "endpoint": "rupture force FWHM lower side", "result": "20.9 pN"}
{"Substance": "CCT3", "assay": "co-immunoprecipitation", "system": "human RBC membrane", "setting": "DSSO crosslinker, unit not given, added: Band 3 peptide 1-56 bait", "scale": "baseline: negative control", "endpoint": "co-IP enrichment", "result": 239}
{"Substance": "RLFEWVPRL", "tested on": "Jurkat T cells expressing 1G4 TCR", "assay": "NFAT-eGFP reporter, fluorescence microscopy", "system": "peptide", "setting": "concentration not given, HLA-A*02:01 NY-ESO system", "endpoint": "reporter activation", "result": "0.00879%"}
{"Substance": "USP14", "assay": "co-immunoprecipitation", "system": "human RBC membrane", "setting": "unit not given, added: Band 3 peptide 1-56 bait", "scale": "baseline: negative control", "endpoint": "co-IP enrichment", "result": 0}
{"Substance": "ALMTWVTQV", "tested on": "Jurkat T cells expressing 1G4 TCR", "assay": "NFAT-eGFP reporter, flow cytometry", "system": "peptide", "setting": "concentration not given, HLA-A*02:01 NY-ESO system", "endpoint": "reporter activation", "result": "62%"}
{"Substance": "adenosylhomocysteinase", "assay": "co-immunoprecipitation", "system": "human RBC membrane", "setting": "DMTMM crosslinker, unit not given, added: Band 3 peptide 1-56 bait", "scale": "baseline: negative control", "endpoint": "co-IP enrichment", "result": 13.8}
{"Substance": "milbemycin oxime", "tested on": "Saccharomyces cerevisiae", "assay": "cell growth", "system": "Pdr5 deleted, Cdr1 overexpressed", "setting": "2^-8.966 µg/mL", "endpoint": "OD600", "result": "0.983 and 1.01 and 0.949"}
{"Substance": "human LDL receptor", "assay": "co-immunoprecipitation", "system": "human RBC membrane", "setting": "DMTMM crosslinker, unit not given, added: Band 3 peptide 1-56 bait", "scale": "baseline: negative control", "endpoint": "co-IP enrichment", "result": 11.5}
{"Substance": "TASPAKETSF", "tested on": "human MAGI1-3/6 PDZ construct (MBP fusion)", "assay": "surface plasmon resonance", "system": "peptide", "setting": "concentration not given", "scale": "higher = stronger binding", "endpoint": "normalised SPR binding response", "result": "0 normalised RU"}
{"Substance": "MQLMPFGCLL", "tested on": "HLA class I histocompatibility antigen, A alpha chain, allele A*24:02 (Homo sapiens, UniProt P04439)", "assay": "conformational ELISA", "system": "peptide", "setting": "concentration not given", "scale": "baseline: positive control peptide, direction not given", "endpoint": "binding score", "result": "6.9%"}
{"Substance": "Polymyxin B", "tested on": "Staphylococcus aureus", "assay": "DiSC3(5) fluorescence", "setting": "concentration not given, 54 min", "scale": "higher = more depolarisation", "endpoint": "membrane depolarisation", "result": "520 a.u. and 577 a.u. and 725 a.u."}
{"Substance": "SEC11A", "assay": "co-immunoprecipitation", "system": "human RBC cytosol", "setting": "DMTMM crosslinker, unit not given, added: Band 3 peptide 1-56 bait", "scale": "baseline: negative control", "endpoint": "co-IP enrichment", "result": 9.24}
{"Substance": "ACEEQNPWARYLEWLFPTETLLLEL", "assay": "ex vivo fluorescence imaging", "system": "peptide, BALB/c mice, 4T1 tumour-bearing, kidney", "setting": "intravenous, 5 nmol, 2 h post-injection", "scale": "higher = more uptake", "endpoint": "mean fluorescence intensity", "result": "1350 ± 146 a.u."}
{"Substance": "GSGAGKETSF", "tested on": "human SCRIB PDZ3-4 tandem (MBP fusion)", "assay": "automated holdup", "system": "peptide, purified PDZ protein", "setting": "concentration not given, unit not given", "scale": "baseline: biotin control resin, higher = stronger binding", "endpoint": "binding intensity", "result": 0.834}
{"Substance": "GLLEWTDRV", "tested on": "Jurkat T cells expressing 1G4 TCR", "assay": "NFAT-eGFP reporter, fluorescence microscopy", "system": "peptide", "setting": "concentration not given, HLA-A*02:01 NY-ESO system", "endpoint": "reporter activation", "result": "0.00918%"}
{"Substance": "FNA / CGLSGLGVA-NH2 ([18F]FNA-labelled, C-amide)", "assay": "gamma counting", "system": "peptide, healthy mice, brown adipose tissue", "setting": "60 min", "endpoint": "tissue uptake", "result": "0.21 %ID/g"}
{"Substance": "human clusterin", "assay": "co-immunoprecipitation", "system": "human RBC cytosol", "setting": "no crosslinker, unit not given, added: Band 3 peptide 1-56 bait", "scale": "baseline: negative control", "endpoint": "co-IP enrichment", "result": 0}
{"Substance": "KDECVIATEV", "tested on": "human SCRIB PDZ3-4 tandem (MBP fusion)", "assay": "automated holdup", "system": "peptide, crude extract", "setting": "concentration not given, corrected by standard peak, unit not given", "scale": "baseline: biotin control resin, higher = stronger binding", "endpoint": "binding intensity", "result": 0.26}
{"Substance": "ILEAAKSIAAATSALVKAASAAQRE", "tested on": "vinculin head domain Vd1", "assay": "complex rupture, AFM single-molecule force spectroscopy", "system": "peptide", "setting": "traces traces, C-terminal pulling, 800 nm/s", "endpoint": "rupture force FWHM lower side", "result": "28.5 pN"}
{"note": "For quick reference, copied from above:"}
{"Substance": "maraviroc", "tested on": "HBMEC", "assay": "gene expression, qPCR", "setting": "2.5 µM, 24 h", "scale": "baseline: untreated cells, increase", "endpoint": "mRNA level", "result": "13.7 fold"}
{"Substance": "LTSTVQLIM", "tested on": "HLA class I histocompatibility antigen, A alpha chain, allele A*01:01 (Homo sapiens, UniProt P04439)", "assay": "complex stability, off-rate", "system": "peptide", "setting": "37 °C", "endpoint": "half-life of peptide-HLA complex", "result": "42 min"}
{"Substance": "GEMVGQARILAQATSDLVNAIKDA", "tested on": "vinculin head domain Vd1", "assay": "complex rupture, AFM single-molecule force spectroscopy", "system": "peptide", "setting": "single traces, C-terminal pulling, 800 nm/s", "endpoint": "rupture force FWHM lower side", "result": "20.9 pN"}
